Results from different studies.
A part holds a random share of what one study measured. Positions count from the first letter of the parent shown.

Study 1
Target: PABPC1L2, full length, GST fusion (mouse, UniProt A0ABA7IW68)
Method: RNAcompete
Molecule type: RNA
Medium: in vitro
Tested at: 20 nM
Notes: 7-mer, probes averaged, single round
Reference: mean of 7-mers
Direction: higher = stronger binding
Measurement: 7-mer Z-score
Residues (chain): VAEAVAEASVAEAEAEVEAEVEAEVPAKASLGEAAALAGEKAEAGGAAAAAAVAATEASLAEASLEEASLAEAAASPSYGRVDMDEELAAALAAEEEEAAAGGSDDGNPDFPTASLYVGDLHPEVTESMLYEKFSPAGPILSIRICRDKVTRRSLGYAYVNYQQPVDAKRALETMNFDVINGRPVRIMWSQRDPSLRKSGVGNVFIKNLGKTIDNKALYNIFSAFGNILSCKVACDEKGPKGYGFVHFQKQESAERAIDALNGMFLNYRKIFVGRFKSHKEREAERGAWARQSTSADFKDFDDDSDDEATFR
AUGCAAC: -0.0645
GUCAGCG: -0.157
CCUAGCA: -0.184
AGGCCAU: -0.0246
CCGUCAU: -0.258
AUCUGCC: -0.286
GAUUCCU: -0.324
ACGGCAU: -0.0156
GACGUGC: 0.0315
CGACCUU: -0.175
CCACGGU: -0.0935
ACACCUU: -0.266
CAAAGAA: 1.28
CCCUCUG: -0.353
AAAGGAC: 1.11
CGUAGUA: -0.32
CCCCCAC: -0.481
UUCUUAG: -0.293
UGUAAAC: 0.321
GUGCAGG: 0.126
UAGGUCG: -0.00652
GACCAAG: -0.00652
GGAUGCA: 0.204
ACCGGGA: 0.0859
UUGAUCC: -0.228

Study 2
Target: RING finger protein unkempt homolog, zinc fingers 1-6, GST-SBP tag (UNK, Homo sapiens, UniProt Q9C0B0, residues 30-357)
Method: RNA Bind-n-Seq
Molecule type: RNA
Medium: in vitro
Tested at: not given
Notes: RNA with constant flanks, human and mouse sites, ends assumed
Reference: input RNA pool
Direction: higher = stronger binding
Measurement: bound/input enrichment
Shared flanks, not repeated: GGGAGUUCUACAGUCCGACGAUC … CAACAGAGGAUUGAGCAUCA
Target sequence (chain): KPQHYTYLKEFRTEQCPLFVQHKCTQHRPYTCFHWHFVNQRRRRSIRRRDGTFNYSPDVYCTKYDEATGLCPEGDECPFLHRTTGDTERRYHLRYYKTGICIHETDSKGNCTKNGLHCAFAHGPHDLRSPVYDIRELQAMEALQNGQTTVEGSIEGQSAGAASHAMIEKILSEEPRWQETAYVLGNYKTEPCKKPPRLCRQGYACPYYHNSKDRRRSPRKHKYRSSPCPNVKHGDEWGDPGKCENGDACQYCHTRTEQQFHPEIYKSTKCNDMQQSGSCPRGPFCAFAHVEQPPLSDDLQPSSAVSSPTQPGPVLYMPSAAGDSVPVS
CCGGAGCAAAUUUUUCAGAACAUAAAACAAGAAUAUAGUCGUUAUCAGAGGUGGAGACAUUUAGAAGUUGUUCUUAAUCAGAGUGAAGCUUGUGCUUCGGAAAGUCAACCUCACUCCUCA: 1.85 ratio
CAGGGUCUUUAUUGUGUGGCUAUUCGUGAUUUCAAACAGGCAGCUGAACUCUUCCUUGACACUGUUUCAACAUUUACAUCCUAUGAACUCAUGGAUUAUAAAACAUUUGUGACUUAUACU: 0.137 ratio
GUGAAGUACGCGUAUUAUGACACUGAACGCAUUGGAGUUGACCUCAUCAUGAAGACGUGUUUUAGCCCCAACCGGGUGAUUGGACUCUCAAGUGACUUACAACAAGUGGGAGGGGCCUCA: 0.119 ratio
CUCUUAAAAGACUAUGAAGAUAAAGUCCGAGAGGAGUAUGAGCAAAUCCUCAGUACCAAACUCGCAGAACAGUAUGAAUCGUUUGUGAAAUUCACGCAUGAUCAGAUCAUGCGGCGAUAC: 0.148 ratio
CUUUGUGUUCAUGGUGGACUUUCACCAGAAAUACACACACUGGAUGAUAUUAGGAGAUUAGAUAGAUUCAAAGAGCCACCUGCAUUUGGACCAAUGUGUGACUUGUUAUGGUCCGAUCCU: 9.18 ratio
AUUUAGAGGAAUGUACUUUACAAGAUAGAUUGUAUAAGAAGCCAAAUAAUGAAAGCCUAGAAAAAACUAAUUUAUACUUAUCUGAAGGUUACAAAUUAGACUUUUAAAUUUUCUUUGUAG: 59.4 ratio
AAGGUGCUCUUAUUGCCUCCAGAUGUUUCUGCUUUGGCCACUCAAGCAGAGAUAGAGAGCAUAGUUAAACCCAAAGUUCUUGUGAAAGAAGCUGAGAAAAAACUUCCUUCCGAUACAGAA: 0.242 ratio
CACGUACAGCCCUGAAUGCAGGUGCAGUUUGGGUUUUUUGUUUUGUUUUGUUUUGUUUUAUUAGCCAGUGGGCAAAGUGAAAUGUAAUUUUGGGUAAGCCAGGGCUACUUUAGCUUUUCU: 1.2 ratio
GUCAGGGAACCGGAGCCGGGCCGCCGCGCUGUGGAGAAGCUGCGUCGGGGCGCACAGGUUAUUAGAAAUGGCUACUCCACAGUCAGUUUUCGUCUUUGCAAUCUGCAUUUUAAUGAUAAC: 0.541 ratio
GACAGCUUUGUAAAAUCCGGAGUCUUCAAUGUAUCAGAGCUUGUGAGAGUAUCCAGAACACCCAUAACCCAGGGAACUGGAGUCAACUUCCCAAUCGGAGAAAUUCCCAGCCAACCAUAC: 0.266 ratio
GUAGAAUUCCAGAAGACGGUGAAGCUUAUGUACUACCUAUGGAUGUUCCAUGCAGUGACCCUGUUUCUGAACAUCUUCGGAUGCUUGGCCUGGUUUUGUGUUGAUUCCUCGAGAGCAGUC: 0.0873 ratio

Study 3
Target: ABI1, truncated, D143A, DHFR fusion (Arabidopsis thaliana)
Method: DHFR PCA, deep sequencing
Medium: yeast
Notes: methotrexate growth selection, single substitutions
Added: (+)-ABA 710 µM
Reference: wild-type fitted maximum
Direction: higher = stronger binding
Measurement: relative binding score
Starting sequence: PYL1, truncated, DHFR fusion (Arabidopsis thaliana); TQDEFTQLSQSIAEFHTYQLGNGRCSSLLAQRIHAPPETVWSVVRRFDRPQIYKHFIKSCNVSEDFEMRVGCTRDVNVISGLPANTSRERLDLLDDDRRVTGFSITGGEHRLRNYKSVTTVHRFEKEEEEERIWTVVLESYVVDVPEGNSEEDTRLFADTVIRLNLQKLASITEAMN
T160C: 99.9%
R155I: 97.8%
I57L: 99.1%
D48L: 19%
D159T: 76%
S42Y: 89.9%
D97Y: 95.1%
L138F: 107%
S150I: 85.3%
A175C: 100%
F47G: -2.72%
D75G: 90.5%

Study 4
Target: CCND1, cyclin fold, Cln2 fusion (human)
Method: yeast growth competition, sequencing
Medium: yeast
Notes: weak parent motif
Reference: not given
Direction: higher = stronger binding
Measurement: normalised enrichment score
Starting sequence: DBF4B docking peptide (human); LGYLYLLLTQSLW; partner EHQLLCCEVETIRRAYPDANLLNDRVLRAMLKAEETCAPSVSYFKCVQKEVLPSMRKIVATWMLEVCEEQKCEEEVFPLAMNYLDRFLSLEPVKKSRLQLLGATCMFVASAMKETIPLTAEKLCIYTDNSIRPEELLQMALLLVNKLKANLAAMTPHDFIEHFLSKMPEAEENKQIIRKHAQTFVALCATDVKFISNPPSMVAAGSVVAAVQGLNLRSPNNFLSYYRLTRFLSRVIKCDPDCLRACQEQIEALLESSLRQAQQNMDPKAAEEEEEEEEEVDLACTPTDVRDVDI
L1A: 0.399
Y3A: -0.364
L6A: 0.213
L8A: 0.525
L4A: 0.641
Q10A: 0.335

Study 5
Target: Ras GTPase-activating protein-binding protein 1, RRM domain (G3BP1, Homo sapiens, UniProt Q13283)
UniProt Q13283, sequence (whole entry, looked up): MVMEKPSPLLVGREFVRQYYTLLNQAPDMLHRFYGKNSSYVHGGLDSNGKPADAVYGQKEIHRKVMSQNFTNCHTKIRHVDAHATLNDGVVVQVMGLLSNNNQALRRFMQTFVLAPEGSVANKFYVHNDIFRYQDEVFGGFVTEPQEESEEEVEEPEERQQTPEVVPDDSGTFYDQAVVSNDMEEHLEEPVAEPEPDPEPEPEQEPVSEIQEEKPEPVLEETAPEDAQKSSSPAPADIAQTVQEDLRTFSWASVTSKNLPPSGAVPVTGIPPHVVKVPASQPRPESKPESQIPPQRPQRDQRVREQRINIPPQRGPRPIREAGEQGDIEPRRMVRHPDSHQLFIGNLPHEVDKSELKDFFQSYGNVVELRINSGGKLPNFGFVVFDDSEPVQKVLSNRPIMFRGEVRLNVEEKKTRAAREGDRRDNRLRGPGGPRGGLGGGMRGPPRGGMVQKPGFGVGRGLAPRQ
Method: RNA Bind-n-Seq
Molecule type: RNA
Medium: in vitro
Tested at: 1 µM
Notes: whole 134-nt RNA, ends assumed
Added: 150 mM KCl
Reference: input library
Direction: higher = stronger binding
Measurement: log2 enrichment
Shared flanks, not repeated: GGGAGUUCUACAGUCCGACGAUC … UGGAAUUCUCGGGUGUCAAGG
UGGGGUAGACCAGUUCCAUGGCACUGAAUAUGUGUGCUGCCCUCAGACAAAGAUUAUUGGAUCUGUGUCAAAAGAAGAGGAAGAGGAAGA: -0.12
GCAGGAAGUAAAAACAAAUGGAAAUGCUUCGGAUAGUGGCAGGGGUGCGGGUUGCUAAGGAAAGGGUGGGAUGGGAGUGGGUAAAGAGUU: 0.761
CACAGACAACACGCACCCACACAGACACAGAGGGAAGGGGUUGGGAUGGGGACAGCGUGCACAGCAGGGCGGGGUAGGACCCCAGCCCCU: 0.00113
GUCCUGUGCUACACAUCGUAUGUACCGAAUCAAACCCCCCCAAAUUUAAACCCCCAAAAAAGUAUUAUGUUACGCCGUUCGGAUCUGCAC: 0.0901
GCAGGAAGUAAAAACAAAUGGAAAUGCUUCGGAUAGUGGCAGGCGUGGGGGUUGCUAAGGAAAGGGUGGGAUGGGAGUGGGUAAAGAGUU: 1.3
UUAAGACAGUCAUUUUAAAAUGGUGGCUGAAUUUCCCAACCCACCCCCAAACUAAACACUAAGUUUAAUUUUCAGCUCCUCUGUUGGACA: -0.0108
UCCUGUGCUACACAUCGUAUGUACCGAAUCGGGAAAAAGGGAAAAAGGGGAAAAAGGGGAAAGUAUUAUGUUACGCCGUUCGGAUCUGCA: 0.0356
AAGUCCUGUGCUACACAUCGUAUGUACCGAAUCAAACCCAAAUUUUUAAAUUUAAAAAAGUAUUAUGUUACGCCGUUCGGAUCUGCACUU: -0.508
CCUCAAGUCCUGUGCUACACAUCGUAUGUACCGAAUCGGAAAGGAGGUUUGGAAAGUAUUAUGUUACGCCGUUCGGAUCUGCACUUCCAG: -0.255
UCAAGUCCUGUGCUACACAUCGUAUGUACCGAAUCGGGGCCCGGCCCGGCCCGGAAAGUAUUAUGUUACGCCGUUCGGAUCUGCACUUCC: -0.996

Further values, each from its own experiment
PhoQ, residues 284 288 289 292 302 303 SLANIV
fold induction (PhoP, residues 12 14 15 18 19 QWHVF (Escherichia coli, UniProt P23836); Sort-seq, refers to: YFP reporter; E. coli; PhoQ-PhoP variant library, added: 10 µM Mg2+; reference: high Mg2+ state, higher = stronger signaling): 3.14

Excerpt of the above (study 5):
GUCCUGUGCUACACAUCGUAUGUACCGAAUCAAACCCCCCCAAAUUUAAACCCCCAAAAAAGUAUUAUGUUACGCCGUUCGGAUCUGCAC: 0.0901
GCAGGAAGUAAAAACAAAUGGAAAUGCUUCGGAUAGUGGCAGGGGUGCGGGUUGCUAAGGAAAGGGUGGGAUGGGAGUGGGUAAAGAGUU: 0.761
AAGUCCUGUGCUACACAUCGUAUGUACCGAAUCAAACCCAAAUUUUUAAAUUUAAAAAAGUAUUAUGUUACGCCGUUCGGAUCUGCACUU: -0.508
UGGGGUAGACCAGUUCCAUGGCACUGAAUAUGUGUGCUGCCCUCAGACAAAGAUUAUUGGAUCUGUGUCAAAAGAAGAGGAAGAGGAAGA: -0.12
CACAGACAACACGCACCCACACAGACACAGAGGGAAGGGGUUGGGAUGGGGACAGCGUGCACAGCAGGGCGGGGUAGGACCCCAGCCCCU: 0.00113
CCUCAAGUCCUGUGCUACACAUCGUAUGUACCGAAUCGGAAAGGAGGUUUGGAAAGUAUUAUGUUACGCCGUUCGGAUCUGCACUUCCAG: -0.255
